Assay results from different studies.
Lines come from different studies, so protocols differ. ± gives the spread as reported.

SMILES	target or system	assay	test system	setting	scale	quantity	result
C=CC(=O)N1[C@@H](c2ccc3c(c2)OCO3)c2[nH]c3ccccc3c2C[C@H]1C(=O)N1CCN(C)CC1	human cyclin E1 wild type-3xFLAG:CDK2	co-IP with TMT proteomics, refers to: TXN	–	concentration not given, P10599	relative to: wild type DMSO	relative co-enrichment	70%
C=CC(=O)Nc1cccc(Cn2ncc3cnc(Nc4cnn(CCOC)c4)nc32)c1	ERBB3 human	binding, KINOMEscan	–	100 nM	lower = stronger binding	percent of control	100%
COC1CN([C@H]2CC[C@H]([C@@]3(C)Oc4c(Cl)cc(C(=O)NCc5c(SC)cc(C)[nH]c5=O)c(C)c4O3)CC2)C1	–	RNA-seq, refers to: DAB2IP mouse homolog	mouse, HT-1376 xenograft, whole blood	dose not given	relative to: vehicle	log2 fold change	0.159
CNS(=O)(=O)Nc1nccc(Cc2c(C)c3ccc(Oc4ncccc4F)cc3oc2=O)c1F	Hep3B	cell viability	–	7 days	–	IC50	108 nM
O=C(N/N=C/c1ccc(C[n+]2ccccc2)cc1)c1cncc(C(=O)N/N=C/c2ccc(C[n+]3ccccc3)cc2)n1	MYC parallel G4 DNA	FRET melting	–	1 µM, DNA 0.2 µM	–	ΔTm	4.4 ± 0.3 °C
CN1CCCNC(=O)c2cccc(c2)C(=O)NCCCN(C)CCCNc2cccc3c2C(=O)c2cccc(c2C3=O)NCCC1	SAS	RNA-Seq, refers to: CCDC122 mRNA	–	1 µM, 6 h	relative to: untreated cells	log2 fold change	1.55
C[n+]1ccc(/C=N/NC(=O)c2cccc(C(=O)N/N=C/c3cc[n+](C)c4ccccc34)n2)c2ccccc21	hp2 hairpin duplex DNA	FRET melting	–	1 µM, added: ds26 10 µM	–	ΔTm	0.7 ± 0.3 °C
Nc1ncc(-c2cc(-c3cnn(CC(F)(F)F)c3)ncc2F)nc1C(=O)NC1CNCC(F)C1 (stereo not drawn)	CAMK1G	KINOMEscan	–	1 µM	relative to: DMSO control	remaining binding	100%
C[n+]1cc(/C=N/NC(=O)c2cccc(C(=O)N/N=C/c3cc4ccccc4[n+](C)c3)c2)cc2ccccc21	hp2 hairpin duplex DNA	FRET melting	–	1 µM	–	ΔTm	0.6 ± 0.1 °C
COc1cccc(/C=N/Nc2nc(Nc3ccccc3)nc(-n3nc(C)cc3C)n2)c1O	Mus musculus	gene silencing, high-content imaging	LDR reporter GFP cells	30 h, retest run 1	–	Emax	83%
C[n+]1ccc(/C=N/NC(=O)c2cccc(C(=O)N/N=C/c3cc[n+](C)cc3)n2)cc1	hp2 hairpin duplex DNA	FRET melting	–	1 µM	–	ΔTm	0.8 ± 0.5 °C
Cc1ncsc1-c1ccc(C(C)NC(=O)C2CC(O)CN2C(=O)C(NC(=O)CCCCCCCCCCN2CCCC(Nc3ncc(Cl)c(Nc4ccccc4S(=O)(=O)C(C)C)n3)C2)C(C)(C)C)cc1 (stereo not drawn)	22Rv1	RNA-seq, refers to: ZNF490 mRNA	–	concentration not given	relative to: DMSO	log2 fold change	-1.71

For quick reference, copied from above:
SMILES	target or system	assay	test system	setting	scale	quantity	result
O=C(N/N=C/c1ccc(C[n+]2ccccc2)cc1)c1cncc(C(=O)N/N=C/c2ccc(C[n+]3ccccc3)cc2)n1	MYC parallel G4 DNA	FRET melting	–	1 µM, DNA 0.2 µM	–	ΔTm	4.4 ± 0.3 °C
